Experimental data from different studies.
Each line is one published result; not all experiments were run side by side. Values joined by “and” are separate records of one study, mostly repeats; a detail may differ. ± gives the spread as reported.
Nuclear receptor subfamily 2 group C member 2 ligand-binding domain: Nuclear receptor subfamily 2 group C member 2, ligand-binding domain (Homo sapiens, UniProt P49116)
T1: riboswitch RNA yjdF aptamer (Bacillus subtilis); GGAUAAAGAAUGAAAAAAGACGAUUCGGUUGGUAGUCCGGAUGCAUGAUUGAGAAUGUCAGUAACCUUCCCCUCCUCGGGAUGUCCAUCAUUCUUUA

| SMILES | target | assay | test system | setting | how to read | endpoint | value |
| --- | --- | --- | --- | --- | --- | --- | --- |
| C#C[C@]1(O)CC[C@H]2[C@@H]3CCc4cc(O)ccc4[C@H]3CC[C@@]21C | Nuclear receptor subfamily 2 group C member 2 ligand-binding domain | SPR imaging | – | 600 nM | – | koff | 2.01e-07 s⁻¹ |
| CC[C@@H]1[C@H](F)C(=O)N[C@@H]1COc1nccc2cc(C(N)=O)c(OC)cc12 | RPS6KC1 (Homo sapiens, UniProt Q96S38) | ATP probe binding, KiNativ profiling, measured: domain 1 ATP site | THP-1 cell lysate | 0.2 mM | – | inhibition | -1.8% |
| Cc1cc2nc3[nH]c(=O)[nH]c(=O)c3nc2cc1C | T1, riboswitch RNA yjdF aptamer (Bacillus subtilis) | fluorescence titration | – | added: 380 nM lumichrome | – | Kd | 1.2 µM |
| Nc1ncnc2c1ncn2[C@@H]1O[C@H](CO[P@](=O)(O)O[P@](=O)(O)O[P@@](=O)(O)S)[C@@H](O)[C@H]1O | GUK1 (Homo sapiens, UniProt Q16774) | ITC | – | molar ratio 1.319 | – | ΔH | -0.803 kcal/mol |
| C=CC(=O)N1CCC(COCC(=O)N2CCN(c3nc(-c4cnc(N)nc4C(F)F)nc(N4CCOC[C@@H]4C)n3)CC2)CC1 | EGFR (Homo sapiens, UniProt P00533, del752-759) | KINOMEscan | – | 1 µM | relative to: DMSO control | remaining binding | 100% |
| Nc1ncnc2c1ncn2[C@@H]1O[C@H](COP(=O)(O)OP(=O)(O)NP(=O)(O)O)[C@@H](O)[C@H]1O | Cell cycle histidine kinase CckA, CA domain (Caulobacter vibrioides, UniProt Q9X688) | ITC | – | without c-di-GMP | – | ΔS | 15.8 cal/mol/K |
| CC1(C)Cc2c(sc(NC(=O)c3ccn[nH]3)c2C(N)=O)C(C)(C)O1 | CFTR (Homo sapiens, UniProt P13569, F312A) | single-channel patch clamp | – | 20 µM, added: ATP 2 mM | – | closed time constant | 293 ± 90 ms |
| C[C@@H]1CCO[C@H]2Cn3cc(C(=O)NCc4ccc(F)cc4F)c(=O)c(O)c3C(=O)N12 | SLC29A4 (Homo sapiens, UniProt Q7RTT9) | transport | MDCK-II, transfected | 3 µM, added: MPP+ 10 µM | – | inhibition | -10% |
| O=C(/C=C\n1cnc(-c2cc(C(F)(F)F)cc(C(F)(F)F)c2)n1)NNc1cnccn1 | Exportin-1 (XPO1, Homo sapiens, UniProt O14980) | nuclear export, high content imaging | HeLa Kyoto reporter | 0.32 µM, 2 h | – | cells with nuclear reporter | 55% and 54.4% |
| O=C(CN1CCO[C@H](COc2cccc(Cl)c2)C1)N1CCc2ccccc21 | DRD5 (Homo sapiens, UniProt P21918) | radioligand binding | – | concentration not given, added: [3H]SCH23390 | – | inhibition | 5.6% |
| Nc1ncnc2c1ncn2[C@@H]1O[C@H](COP(=O)(O)OP(=O)(O)O)[C@@H](O)[C@H]1O | ATP-sensitive inward rectifier potassium channel 1 (Rattus norvegicus, UniProt P35560) | channel activity, inhibitor, inside-out patch clamp | – | pH 7.4, Mg2+-free, no second inhibitory nucleotide | – | concentration for complete inhibition | 1 to 1.2 mM |
| Nc1[nH]c(=O)ncc1F | Nuclear receptor subfamily 2 group C member 2 ligand-binding domain | SPR imaging | – | 600 nM | – | koff | 4.1e-05 s⁻¹ |
| CC1(C)CC2(C)OC(=O)NC2(C)c2ccccc21 (stereo not drawn) | E3 SUMO-protein ligase PIAS1 (PIAS1, Homo sapiens, UniProt O75925) | binding, affinity selection mass spectrometry | – | – | relative to: other proteins in batch | log fold enrichment | 0.121 |
| O=C1OC(c2ccccc2)=N/C1=C\c1ccc(O)c(O)c1 | MAL12 (Saccharomyces cerevisiae S288c, UniProt P53341) | inhibitor, Lineweaver-Burk | – | 3200 ppm, added: pNPG substrate | – | Vmax | 0.046 mM/min |
| Nc1ncnc2c1ncn2[C@@H]1O[C@H](COP(=O)(O)CP(=O)(O)OP(=O)(O)O)[C@@H](O)[C@H]1O | P2X purinoceptor 1 (P2RX1, Homo sapiens, UniProt P51575, D170A) | saturation binding | – | 13 nM | – | specific binding | 82 corrected cpm and 78.5 corrected cpm and 62 corrected cpm |
